Assay results gathered from unrelated publications.
Parts stem from different laboratories: compare values within a part only.

Set 1
Target: Centromere-binding protein 1, full length, His-tagged (CBF1, Saccharomyces cerevisiae, UniProt P17106, residues 1-351)
Chain of UniProt P17106 (whole entry, looked up): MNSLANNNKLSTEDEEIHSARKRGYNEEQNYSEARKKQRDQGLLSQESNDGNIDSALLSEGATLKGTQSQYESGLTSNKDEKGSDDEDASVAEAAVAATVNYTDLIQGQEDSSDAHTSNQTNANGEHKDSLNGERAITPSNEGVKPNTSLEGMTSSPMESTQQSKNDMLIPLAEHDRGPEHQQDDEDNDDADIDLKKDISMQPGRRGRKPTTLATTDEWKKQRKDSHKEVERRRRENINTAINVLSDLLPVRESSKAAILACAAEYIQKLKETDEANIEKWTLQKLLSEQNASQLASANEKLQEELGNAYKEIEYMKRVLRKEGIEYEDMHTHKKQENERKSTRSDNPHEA
Method: competition protein-binding microarray
Molecule type: double-stranded DNA, one strand shown
Sample: in vitro
Tested at: 2 µM
Notes: whole 60-bp probe, lowest competitor level
Together with: Pho4 competitor, 0.05 µM
Reading: higher = stronger binding
Shared flanks, not repeated: … GTCTTGATTCGCTTGACGCTGCTG
Sequence | fluorescence intensity [a.u.]
CTTTCCCGATCTTGATTTGTGGGTGTAGCACATTTG | 91
CCTGCTGAGCTCAGCCATGCGTCTTACTGCCTGGTG | 62.9
TCCTCTCCAATGGACACCGTGACGGAATCAGAAATG | 112
ACACAGAGCGGCTGAAGCGTGATGGATGCCCAGGTA | 87.8
GAGCAAGTTTCTTCACGTGTGACGCTGGCACATTAG | 657
CGGGGTTAAGTTTGACATGTGGGTGGCTTGCAGCAG | 84.2
AAATTACTAAGTTGAAAAGTGGGTGACGCCGTATGA | 79
CGTCCTAGTGATTGGGCCGTGGGTGCCATGAGGAAG | 70.8

Set 2
Target: Replicase polyprotein 1ab, main protease (rep, Severe acute respiratory syndrome coronavirus 2, UniProt P0DTD1)
Observed: enzyme activity
Tested at: 20 µM
Notes: with DTT
SMILES | inhibition
FC(F)(F)c1cc(NC(=S)Nc2ccc(Br)cc2-c2nnn[nH]2)cc(C(F)(F)F)c1 | -13.6%
CCN(CC)S(=O)(=O)c1cccc(-n2sc3ccccc3c2=O)c1 | 98.3%
C=CCN1CCc2cc(O)c(O)cc2C(c2ccccc2)C1 (stereo not shown) | 4%

Set 3
Target: Interferon regulatory factor 3, full length, phosphomimetic (IRF3, Homo sapiens, UniProt Q14653, residues 1-427, S386D/S396D/S398D/S402D/T404D/S405D)
Method: protein-binding microarray
Molecule type: double-stranded DNA, one strand shown
Sample: in vitro
Tested at: 2540 nM top
Notes: 60-bp whole probe
Together with: salmon DNA 0.4 mg/ml
Relative to: random background probes
Reading: higher = stronger binding
Shared flanks, not repeated: GCCTAGCAC … GTCTTGATTCGCTTGACGCTGCTG
Residues (chain): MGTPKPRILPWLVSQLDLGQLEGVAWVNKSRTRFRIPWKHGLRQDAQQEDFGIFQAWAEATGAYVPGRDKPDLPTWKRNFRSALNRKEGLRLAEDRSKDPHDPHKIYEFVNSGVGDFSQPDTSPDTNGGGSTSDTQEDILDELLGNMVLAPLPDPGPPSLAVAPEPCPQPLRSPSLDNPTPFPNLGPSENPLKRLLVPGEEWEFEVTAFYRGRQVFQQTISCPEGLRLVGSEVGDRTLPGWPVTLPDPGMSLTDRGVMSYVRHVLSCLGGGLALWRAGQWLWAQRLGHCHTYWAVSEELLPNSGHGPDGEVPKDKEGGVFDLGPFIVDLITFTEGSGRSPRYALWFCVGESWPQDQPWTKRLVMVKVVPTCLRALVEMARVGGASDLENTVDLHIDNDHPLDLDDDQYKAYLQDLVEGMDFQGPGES
Sequence | fitted relative affinity
GACGGTATCCTTCTCCTGATGTGCTAG | 6.38 z-score
TTAGCTTTCGGTCTCGGTTAGTGCTAG | 5.19 z-score
TTAGATTTAAGACTGGATTAGTGCTAG | -0.331 z-score
GACGGTCTCCTACTGCTGGCGTGCTAG | 1.3 z-score
TAAGGTTTCCTTTCCCTTTAGTGCTAG | 10.5 z-score
GACGAATTCGGGTTTCGAGACGTGCTA | 1.56 z-score
GACGTTTTCAGTTTCGAGACGTGCTAG | 4.57 z-score
TTAGATATCGGTTATCGATTAGTGCTA | 1.54 z-score

Set 4
Cell line: HEK-293T/ACE2
Tested at: 10 µM
Time: 16 h
Relative to: vehicle
SMILES | viability [%]
Cc1cnc(NC(=O)C2=C(O)c3ccccc3S(=O)(=O)N2C)s1 | 100
CC(C)[C@H](N)C(=O)OCC(CO)OCn1cnc2c(=O)nc(N)[nH]c21 (stereo partly shown) | 102
O=c1oc2ccccc2c(O)c1Cc1c(O)c2ccccc2oc1=O | 99.7

Set 5
Target: Replicase polyprotein 1ab, polymerase (rep, Severe acute respiratory syndrome coronavirus 2, UniProt P0DTD1)
Observed: enzyme activity
Mode: inhibitor
Tested at: 20 µM
SMILES | inhibition [%]
Cc1nn(C)c2c1C(c1cccc(Cl)c1)=NCCN2 | 2.1
O=C1C(Cl)=C(NCCN2CCOCC2)C(=O)c2ncccc21 | 36.2
O=C1NCCN1CCN1CCC(c2cn(-c3ccc(F)cc3)c3ccc(Cl)cc23)CC1 | 1.21
N#Cc1c(N2C[C@@H]3NCCO[C@H]3C2)c(F)cc2c(=O)c(C(=O)O)cn(C3CC3)c12 | -5.09
C[N+]1([O-])[C@@H]2C[C@@H](OC(=O)[C@H](CO)c3ccccc3)C[C@H]1[C@@H]1O[C@@H]12 (stereo partly shown) | -2.52
O=C(O)CN1C(=O)c2cccc3cccc(c23)C1=O | 19.5
C/C=C1\[C@H]2C=C(C)C[C@]1(N)c1ccc(=O)[nH]c1C2 | -5.59
CC1(C)CN(C(=O)c2ccc(-c3cccc4nc(NC(=O)C5CC5)nn34)cc2)C1 | -4.89
CO/N=C(\C(=O)N[C@@H]1C(=O)N2C(C(=O)O)=C(CSc3nc(=O)c(O)nn3C)CS[C@H]12)c1csc(N)n1 | 4.42
CC1CCc2c(N3CCC(O)CC3)c(F)cc3c(=O)c(C(=O)O)cn1c23 (stereo not shown) | -5.92
CCN(CC)CCOC(=O)c1cc(Cl)c(N)cc1OC | 3.1
CN1Cc2c(N)cccc2C(c2ccccc2)C1 (stereo not shown) | -2.94
N=C(N)NCCCCN | -11.9
C[C@@H]1CCO[C@H]2Cn3cc(C(=O)NCc4ccc(F)cc4F)c(=O)c(O)c3C(=O)N12 | -3.32
CC(C)N(CCC(C(N)=O)(c1ccccc1)c1ccccn1)C(C)C (stereo not shown) | 94.2
Cc1cccc(/C=N/Nc2cc(N3CCOCC3)nc(OCCc3ccccn3)n2)c1 | -6.14
C[C@H](N)[C@H](O)c1cccc(O)c1 | 0.48
COc1cc2c3cc1Oc1cc(ccc1O)C[C@@H]1c4c(cc(OC)c(O)c4Oc4ccc(cc4)C[C@@H]3N(C)CC2)CC[N+]1(C)C | 0.11
CN[C@H]1CN(c2ccc3c(=O)c(C(=O)O)cn(-c4nccs4)c3n2)C[C@@H]1OC | 0.04
COc1cc2nc(N3CCN(C(=O)COc4c(OC)cccc4C(C)C)CC3)nc(N)c2cc1OC | -7.58
CCN1CCN(c2ccc(Nc3cc(N(C)C(=O)Nc4c(Cl)c(OC)cc(OC)c4Cl)ncn3)cc2)CC1 | 2.26
CC(C)(Oc1ccc(Cl)cc1)C(=O)N1CSCC1C(=O)O (stereo not shown) | 1.38
CC(C)N(CCC(=O)c1ccc2ccccc2c1)Cc1ccccc1 | 8.04
N[C@@]1(C(=O)O)CC[C@@H](C(=O)O)C1 | -5.09
O=C(NOCC(O)CO)c1cc(Br)c(F)c(F)c1Nc1ccc(I)cc1F (stereo not shown) | 11.7

Set 6
Target: Sal-like protein 4, full length isoform A (SALL4, Homo sapiens, UniProt Q9UJQ4, residues 1-1053)
Chain of UniProt Q9UJQ4 (whole entry, looked up): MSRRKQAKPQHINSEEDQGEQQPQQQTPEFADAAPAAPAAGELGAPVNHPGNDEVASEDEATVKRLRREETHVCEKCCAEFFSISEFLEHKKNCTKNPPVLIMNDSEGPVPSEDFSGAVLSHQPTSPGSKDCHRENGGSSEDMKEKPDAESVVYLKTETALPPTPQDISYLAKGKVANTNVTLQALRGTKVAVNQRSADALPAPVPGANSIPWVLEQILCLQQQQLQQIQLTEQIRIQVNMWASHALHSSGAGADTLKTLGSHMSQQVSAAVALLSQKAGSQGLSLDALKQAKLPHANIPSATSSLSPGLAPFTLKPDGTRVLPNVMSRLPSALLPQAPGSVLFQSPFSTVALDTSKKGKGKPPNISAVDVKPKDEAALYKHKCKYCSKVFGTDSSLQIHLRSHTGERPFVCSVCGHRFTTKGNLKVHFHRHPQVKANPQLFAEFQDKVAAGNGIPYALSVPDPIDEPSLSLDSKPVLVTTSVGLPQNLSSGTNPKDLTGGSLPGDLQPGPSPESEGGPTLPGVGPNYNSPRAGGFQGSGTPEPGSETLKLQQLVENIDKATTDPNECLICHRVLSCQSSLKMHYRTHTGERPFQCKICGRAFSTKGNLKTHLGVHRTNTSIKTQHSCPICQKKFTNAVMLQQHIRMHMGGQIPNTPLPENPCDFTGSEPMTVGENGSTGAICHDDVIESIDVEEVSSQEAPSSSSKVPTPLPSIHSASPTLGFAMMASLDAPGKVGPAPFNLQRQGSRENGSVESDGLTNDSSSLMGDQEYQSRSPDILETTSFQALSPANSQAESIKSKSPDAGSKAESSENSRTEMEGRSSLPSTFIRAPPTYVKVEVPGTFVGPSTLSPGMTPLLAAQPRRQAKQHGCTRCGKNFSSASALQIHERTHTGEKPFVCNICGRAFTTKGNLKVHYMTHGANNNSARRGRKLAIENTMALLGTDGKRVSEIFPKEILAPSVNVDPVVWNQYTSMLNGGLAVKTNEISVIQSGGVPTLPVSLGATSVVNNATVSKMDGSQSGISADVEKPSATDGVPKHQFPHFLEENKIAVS
Method: universal PBM
Molecule type: double-stranded DNA, one strand shown
Sample: in vitro
Tested at: 600 nM
Notes: 8-mer, flanks averaged, mean of replicates
Reading: higher = stronger binding
Sequence | E-score
ACTACCTG | -0.131
ACAATTAG | 0.154
CTACTTTC | 0.0345
AGCATTGG | 0.0438
GGTACTGA | -0.14
CAGCAAGC | -0.249
CACCAAAC | 0.00228
AAGCCGGC | -0.376
